{"data": "Assay results collected from several papers", "note": "Each line is one published result; not all experiments were run side by side. Values joined by “and” are separate records of one study, mostly repeats; a detail may differ. ± marks the error that the study gave."}
{"Substance": "nucleophosmin T78E", "test": "far-UV CD, CDSSTR", "test system": "Tris buffer, NaCl", "conditions": "pH 7.5, room temperature", "measurement": "unstructured content", "result": "69%"}
{"Substance": "N=C(N)NCCC[C@@H]1NC(=O)[C@H](CCCCNC(=O)CN2CCN(CC(=O)O)CCN(CC(=O)O)CCN(CC(=O)O)CC2)NC(=O)[C@@H](Cc2ccccc2)NC(=O)[C@H](CC(=O)O)NC(=O)CNC1=O [indium-111 labelled]", "test system": "female BALB/c nude mice, U-87 MG xenograft, blood", "conditions": "intravenous, dose not given, 4 h", "measurement": "blood radioactivity", "result": "< 0.05 %ID/g"}
{"Substance": "CCCC[C@@H]1NC(=O)[C@@H](CC(C)C)NC(=O)[C@H](CCCCNC(=O)CN2CCN(CC(=O)O)CCN(CC(=O)O)CC2)NC(=O)NNC(=O)[C@H](Cc2c[nH]cn2)NC(=O)[C@@H](Cc2c[nH]c3ccccc23)NC1=O [copper-64 labelled]", "test system": "Balb/c mice, kidneys", "conditions": "intravenous, dose not given", "measurement": "tissue uptake", "result": "1.56 ± 0.34 %ID/g"}
{"Substance": "Cc1ccnc(-c2cc(C(=O)NCCCCCC(=O)N[C@@H](CCCNC(=N)N)C(=O)N[C@@H](CCCNC(=N)N)C(=O)N[C@@H](Cc3c[nH]c4ccccc34)C(=O)N[C@@H](Cc3c[nH]c4ccccc34)C(=O)N[C@@H](CCCNC(=N)N)C(=O)N[C@@H](Cc3c[nH]c4ccccc34)C(=O)N[C@@H](Cc3c[nH]c4ccccc34)C(=O)N[C@@H](CCCNC(=N)N)C(=O)N[C@@H](CCCNC(=N)N)C(N)=O)ccn2)c1 (stereo in doubt)", "test": "RNO/histidine method", "test system": "acetonitrile", "conditions": "with: irradiation 365 nm", "scale": "reference: phenalenone", "measurement": "singlet oxygen yield", "result": "59%"}
{"Substance": "CC1CS(=O)(=O)CCN1/N=C/c1ccc([N+](=O)[O-])o1 (stereo not drawn)", "tested on": "Trypanosoma cruzi", "test": "reporter mRNA translation, inhibitor, measured: Renilla luciferase mRNA", "test system": "cell-free extract", "conditions": "concentration not given", "scale": "reference: positive over negative control", "measurement": "translation activity", "result": "84.7% and 125%"}
{"Substance": "Cc1cc(-c2ccc(NC(=O)CC[C@H](NC(=O)CN3CCN(CC(=O)O)CCN(CC(=O)O)CCN(CC(=O)O)CC3)C(=O)NCC(=O)N[C@@H](CC(N)=O)C(=O)N[C@H](C(=O)N[C@H](C(=O)N[C@@H](CCCNC(=N)N)C(=O)N[C@@H](CCC(N)=O)C(=O)O)C(C)C)C(C)C)c(C)c2)ccc1/N=N/c1ccc2c(S(=O)(=O)O)cc(S(=O)(=O)O)c(N)c2c1O [copper-64 labelled]", "test system": "nude mice, muscle", "conditions": "intravenous, 2 h", "measurement": "tissue uptake", "result": "2.73 ± 0.36 %ID/g"}
{"Substance": "CCCC[C@H](NC(=O)CCCCCCCNC(=O)CN1CCN(CC(=O)O)CCN(CC(=O)O)CC1)C(=O)N[C@H]1CC(=O)NCCCC[C@@H](C(N)=O)NC(=O)[C@H](Cc2c[nH]c3ccccc23)NC(=O)[C@H](CCCNC(=N)N)NC(=O)[C@@H](Cc2ccccc2)NC(=O)[C@H](Cc2c[nH]cn2)NC1=O [technetium-99m labelled]", "test system": "C57 mouse, blood", "conditions": "intravenous, 0.037 MBq, 4 h", "measurement": "tissue uptake", "result": "0.04 ± 0.03 %ID/g"}
{"Substance": "CCCC[C@@H]1NC(=O)[C@@H](CC(C)C)NC(=O)[C@H](CCCCNC(=O)CN2CCN(CC(=O)O)CCN(CC(=O)O)CC2)NC(=O)[C@@H](CO)NC(=O)[C@H](Cc2c[nH]cn2)NC(=O)[C@@H](Cc2c[nH]c3ccccc23)NC1=O [copper-64 labelled]", "test system": "Balb/c mice, blood", "conditions": "intravenous, dose not given", "measurement": "tissue uptake", "result": "0.29 ± 0.05 %ID/g"}
{"Substance": "CCN1CCSC1=CC=CC1=[N+](CC)CCS1", "tested on": "Trypanosoma cruzi", "test": "reporter mRNA translation, inhibitor, measured: Renilla luciferase mRNA", "test system": "cell-free extract", "conditions": "concentration not given, test 2", "scale": "reference: positive over negative control", "measurement": "translation activity", "result": "84.6%"}
{"Substance": "CC(C)C[C@H](NC(=O)[C@H](Cc1ccc(O)cc1)NC(=O)[C@@H](CCCNC(=N)N)NC(=O)[C@@H](CO)NC(=O)[C@H](Cc1ccccc1)NC(=O)[C@H](CC1CCCCC1)NC(=O)[C@H](CC(=O)O)NC(=O)CN1CCN(CC(=O)O)CCN(CC(=O)O)CCN(CC(=O)O)CC1)C(=O)N[C@@H](Cc1c[nH]c2ccccc12)C(=O)N[C@@H](CO)C(=O)O [copper-64 labelled]", "test system": "human, spleen", "conditions": "concentration not given, 1 h", "measurement": "activity concentration", "result": "2490 Bq/mL and 3790 Bq/mL and 2680 Bq/mL and 2980 Bq/mL and 3360 Bq/mL and 2530 Bq/mL"}
{"Substance": "CC(C)C[C@@H](NC(=O)[C@@H](CC(C)C)NC(=O)[C@@H](CC(=O)O)NC(=O)[C@@H](CC(C)C)NC(=O)[C@@H](CC(C)C)NC(=O)[C@@H](CC(C)C)NC(=O)[C@H](NC(=O)[C@@H](CC(=O)O)NC(=O)[C@H](NC(=O)[C@H]1CCCN1C(=O)[C@@H](Cc1ccccc1)NC(=O)[C@@H](CC(C)C)NC(=O)[C@@H](CC(C)C)NC(=O)[C@@H](CC(=O)O)NC(=O)[C@@H](CC(C)C)NC(=O)[C@@H](Cc1ccc(O)cc1)NC(=O)[C@@H](C)NC(=O)[C@@H](CCCNC(=N)N)NC(=O)[C@@H](Cc1c[nH]c2ccccc12)NC(=O)[C@H]1CCCN1C(=O)[C@@H](CC(N)=O)NC(=O)[C@@H](CCC(N)=O)NC(=O)[C@@H](CC(=O)O)NC(=O)[C@@H](CC(=O)O)NC(=O)[C@@H](CSC1CC(=O)N(CCNC(=O)CN2CCN(CC(=O)O)CCN(CC(=O)O)CC2)C1=O)NC(=O)[C@@H](C)N)[C@H](C)O)[C@H](C)O)C(=O)N[C@H](Cc1c[nH]c2ccccc12)C(=O)O (stereo partly drawn) [copper-64 labelled]", "test system": "male nude mice, LNCaP xenograft", "conditions": "intravenous, dose not given, 4 h", "measurement": "blood uptake", "result": "15.3 %ID/g"}
{"Substance": "C=C1CC[C@H](OCCCNC(=O)CCOCCOCCOCCOCCOCCOCCOCCOCCOCCOCCOCCOCCOCCOCCOCCOCCOCCOCCOCCOCCOCCOCCOCCOCCOCCOCCOCCOCCOCCOCCOCCOCCOCCOCCOCCOCCNC(=O)CCN2C(=O)CC(SC[C@H](NC(=O)[C@H](Cc3ccccc3)NC(=O)[C@H](CC(N)=O)NC(=O)[C@H](Cc3c[nH]cn3)NC(=O)[C@@H](NC(=O)[C@H](CC(=O)O)NC(=O)[C@H](CCC(N)=O)NC(=O)[C@H](CC(C)C)NC(=O)[C@H](CCCCN)NC(=O)[C@H](CCCCN)NC(=O)[C@H](CCCNC(=N)N)NC(=O)[C@H](CC(C)C)NC(=O)[C@H](Cc3c[nH]c4ccccc34)NC(=O)[C@H](CCC(=O)O)NC(=O)[C@@H](NC(=O)[C@H](CCCNC(=N)N)NC(=O)[C@H](CCC(=O)O)NC(=O)[C@H](CCSC)NC(=O)[C@H](CO)NC(=O)[C@H](CC(N)=O)NC(=O)[C@H](CC(C)C)NC(=O)[C@H](Cc3c[nH]cn3)NC(=O)[C@H](CCCCN)NC(=O)CNC(=O)[C@H](CC(C)C)NC(=O)[C@H](CC(N)=O)NC(=O)[C@H](Cc3c[nH]cn3)NC(=O)[C@H](CCSC)NC(=O)[C@H](CC(C)C)NC(=O)[C@H](CCC(N)=O)NC(=O)[C@@H](NC(=O)[C@H](CCC(=O)O)NC(=O)[C@H](CO)NC(=O)[C@@H](NC(=O)[C@@H](N)CO)C(C)C)[C@@H](C)CC)C(C)C)C(C)C)C(=O)O)C2=O)C/C1=C/C=C1\\CCC[C@]2(C)[C@@H]([C@H](C)CCCC(C)(C)O)CC[C@@H]12 (stereo partly drawn)", "test system": "male cynomolgus monkey, plasma", "conditions": "subcutaneous, 0.007 mg/kg, single dose", "measurement": "MRT", "result": "29.5 h"}
{"note": "Repeated from above:"}
{"Substance": "CCCC[C@@H]1NC(=O)[C@@H](CC(C)C)NC(=O)[C@H](CCCCNC(=O)CN2CCN(CC(=O)O)CCN(CC(=O)O)CC2)NC(=O)NNC(=O)[C@H](Cc2c[nH]cn2)NC(=O)[C@@H](Cc2c[nH]c3ccccc23)NC1=O [copper-64 labelled]", "test system": "Balb/c mice, kidneys", "conditions": "intravenous, dose not given", "measurement": "tissue uptake", "result": "1.56 ± 0.34 %ID/g"}
{"Substance": "CC(C)C[C@@H](NC(=O)[C@@H](CC(C)C)NC(=O)[C@@H](CC(=O)O)NC(=O)[C@@H](CC(C)C)NC(=O)[C@@H](CC(C)C)NC(=O)[C@@H](CC(C)C)NC(=O)[C@H](NC(=O)[C@@H](CC(=O)O)NC(=O)[C@H](NC(=O)[C@H]1CCCN1C(=O)[C@@H](Cc1ccccc1)NC(=O)[C@@H](CC(C)C)NC(=O)[C@@H](CC(C)C)NC(=O)[C@@H](CC(=O)O)NC(=O)[C@@H](CC(C)C)NC(=O)[C@@H](Cc1ccc(O)cc1)NC(=O)[C@@H](C)NC(=O)[C@@H](CCCNC(=N)N)NC(=O)[C@@H](Cc1c[nH]c2ccccc12)NC(=O)[C@H]1CCCN1C(=O)[C@@H](CC(N)=O)NC(=O)[C@@H](CCC(N)=O)NC(=O)[C@@H](CC(=O)O)NC(=O)[C@@H](CC(=O)O)NC(=O)[C@@H](CSC1CC(=O)N(CCNC(=O)CN2CCN(CC(=O)O)CCN(CC(=O)O)CC2)C1=O)NC(=O)[C@@H](C)N)[C@H](C)O)[C@H](C)O)C(=O)N[C@H](Cc1c[nH]c2ccccc12)C(=O)O (stereo partly drawn) [copper-64 labelled]", "test system": "male nude mice, LNCaP xenograft", "conditions": "intravenous, dose not given, 4 h", "measurement": "blood uptake", "result": "15.3 %ID/g"}
